Measured values gathered from unrelated publications.
Every numbered part comes from another study and shows a few of its results, in no order. Substitutions count along the parent as printed.

Set 1 — method: RNA Bind-n-Seq; form: RNA; medium: in vitro; tested at: 1 µM; notes: whole 134-nt RNA, ends assumed; with: 150 mM KCl; baseline: input library; reading: higher = stronger binding
Target: Ras GTPase-activating protein-binding protein 1, RRM domain (G3BP1, Homo sapiens, UniProt Q13283)
Chain of UniProt Q13283 (whole entry, looked up): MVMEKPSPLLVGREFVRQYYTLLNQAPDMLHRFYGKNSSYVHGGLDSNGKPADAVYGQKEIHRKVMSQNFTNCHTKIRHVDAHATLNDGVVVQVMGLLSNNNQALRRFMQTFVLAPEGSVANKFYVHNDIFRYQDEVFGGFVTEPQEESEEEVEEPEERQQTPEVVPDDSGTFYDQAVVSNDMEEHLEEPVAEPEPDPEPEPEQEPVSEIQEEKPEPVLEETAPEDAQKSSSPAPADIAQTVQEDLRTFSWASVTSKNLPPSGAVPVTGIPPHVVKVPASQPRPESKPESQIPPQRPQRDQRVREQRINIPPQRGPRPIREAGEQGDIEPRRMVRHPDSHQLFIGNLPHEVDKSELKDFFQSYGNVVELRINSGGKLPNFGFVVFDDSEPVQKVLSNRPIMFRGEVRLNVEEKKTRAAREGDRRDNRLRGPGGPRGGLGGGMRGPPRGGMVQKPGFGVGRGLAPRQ
All sequences stand within: GGGAGUUCUACAGUCCGACGAUC … UGGAAUUCUCGGGUGUCAAGG
Strand	log2 enrichment
GCAGAAAGUAAAAACAAAUGGAAAUGCUUCGGAUAGUGGCAGGGGUGGGGGUUGCUAAGGAAAGGGUGGGAUGGGAGUGGGUAAAGAGUU	1.13
CUGUGCUACACAUCGUAUGUACCGAAUCGGGUUUUUUUGGGUUUUUUUGGGUUUUUUUGGGAAAGUAUUAUGUUACGCCGUUCGGAUCUG	-0.143
UGAGAAACUUGCUCAAAUAUUGGCAGCUAGACAGUUAGAAAUUAAACAGAUUCCAUCUGAUGGCCACUGUAUGUAUAAAGCCAUUGAAGA	-0.143
GUGCUACACAUCGUAUGUACCGAAUCGGGGAAAAAAAGGGGUUUUUUUGGGGAAAAAAAGGGGAAAGUAUUAUGUUACGCCGUUCGGAUC	1.21
CCUGUGCUACACAUCGUAUGUACCGAAUCGGGGUUUUUUUGGUUUUUUUGGUUUUUUUGGGAAAGUAUUAUGUUACGCCGUUCGGAUCUG	-0.305
UCAAGUCCUGUGCUACACAUCGUAUGUACCGAAUCGGAAAAAGGAAAAAGGAGGAAAGUAUUAUGUUACGCCGUUCGGAUCUGCACUUCC	-0.0965
CCUCAAGUCCUGUGCUACACAUCGUAUGUACCGAAUCGGGAGGGUGGGUGGGAAAGUAUUAUGUUACGCCGUUCGGAUCUGCACUUCCAG	-0.198
ACCAUGCAGGUGGGCAUCUUUGGGAAGUGGGGCAAGGGGGGGAUAGGGAGGGGGGUAACACUUUGGGAACAGGUGGUCCCAGGUCGAAAC	-0.665
UAACUUUAGAGGAGGAUCUGAUGGACAUGGCAGUGGACGUGGAUUUGGGGAUGGCUAUAAUGGGUAUGGAGGAGGACCUGGAGGUGGCAA	-0.867

Set 2 — method: protein binding microarray; form: double-stranded DNA, one strand shown; medium: in vitro; tested at: not given; baseline: not given; reading: higher = stronger binding
Target: Histone acetyltransferase KAT6A, both winged helices, GST fusion (KAT6A, Homo sapiens, UniProt Q92794, residues 1-181)
Notes: 8-mer, flanks averaged, mean of 2 arrays, mostly near background
Residues (chain): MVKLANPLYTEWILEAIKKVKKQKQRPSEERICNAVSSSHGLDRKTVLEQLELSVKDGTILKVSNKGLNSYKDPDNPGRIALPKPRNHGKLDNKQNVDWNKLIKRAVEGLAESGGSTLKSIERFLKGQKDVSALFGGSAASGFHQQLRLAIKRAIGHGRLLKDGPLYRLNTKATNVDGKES
Strand	E-score
CCGTCGCC	0.305
AGGAGAAG	-0.303
ATCAATCC	-0.0954
TAAATATA	-0.0498
AATAAGCC	0.0474
AACTGCTG	-0.136
TGTCGTAA	-0.032
AATGGCGG	0.106
ATGTATTG	0.00702
CCCAAGCC	0.0921
ATGAACGG	0.13
ATCTCCAT	-0.167
CACGCACC	0.169
CATCAATG	-0.0312
ATTTCTAG	0.0324
CTTTGGGC	-0.0435

Set 3 — method: RNA Bind-n-Seq; form: RNA; medium: in vitro; tested at: 365 nM; baseline: no-protein control; reading: higher = stronger binding
Target: RNA binding protein fox-1 homolog 2, RRM domain, GST-SBP tag (RBFOX2, Homo sapiens, UniProt O43251-10, residues 100-194)
Notes: natural RNA segment, single round, ends assumed
All sequences stand within: GGGAGUUCUACAGUCCGACGAUC … UGGAAUUCUCGGGUGCCAA
Construct (chain): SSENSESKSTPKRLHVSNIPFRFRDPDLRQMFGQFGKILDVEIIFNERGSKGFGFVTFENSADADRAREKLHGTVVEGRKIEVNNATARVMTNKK
Strand	RBNS enrichment (R)
CGUGUGAGUCUCAGGCCAGGCCCUUAUUUCUGAAUGUGUUUGAAUUUUAAGUUUGCCUUAUCAGAUAUCUGAGCUGUGCGACAAGUAAGUAGCUCUGGGGCCAUGUCUUG	0.997
GAAUUCACCCGAAAUUCUCAUUUGCCAUCAGGCCGAGCUUUUAAAGAAAAAUUGUUCUCUAACCAGGAUUGUAACAAAAGUGUAAAUACUGUUUCAGAGUUGAGAGUUGG	0.353
UUUGCAUUAGUACUGAAAUCUGUACCCUACAGACCUUAUAAUAAUUUGCAAAGUGACUCUGACUAACGCGGUUAAGAACAUCUGAACUUGGUUUCCCAAAUGACUCAGUU	0.24
ACUUCCAAGAAGAAAAACUGUUCUGUUGUAAAAAAUAUAAUUGCUCUUAAUUCUUGGGGAGGUUACUAAUAGCAGUAGGAUAGAAUUUUAUGAGGUUACCUACAACUACU	0.41
UCUGGCUUUGACUGACUCCUGGGGGAAGCUGCUGUGGCCCAGCUCCUCCCUCCUCAUCUUGCCGUCCCACUGGGGUGCUAGGAAAUCCAGGAUGACGGCUGCUCUGAUAU	2.6
UGAGUCCUUGUACAGAAAUGAUAGAGGCCUGAGGGGGUGUGCAGGUGAUAGACCCUGGUACUCCUAAGACCUGGGGUAUCAUAUCAGGGACCUGCUUGUGAACAUGUGUA	0.534
UAGUUUACAGAUCAUAAUCCUAAGCAGUCAGGAGAGAAAUACGAACAGAAAUUACAUGAGGAAUAUUCCGGCUAGAUUAGGCGCCUGUGGAUAUUGGAGUUGGGUUGAUU	0.743
UGUUCGGAAAACAUAAAGGACCACUCCUGAAGACAGGGAGAUCGCGGAAGUCAUCAAGCACUUGGGCGUUCUGCUCCGAUGCAGCUGUGGCCAGCGGUCAGGCUGCUGAG	0.472

Set 4 — method: DHFR PCA, deep sequencing; medium: yeast; with: (+)-ABA 1.4 µM; baseline: wild-type fitted maximum; reading: higher = stronger binding
Target: ABI1, truncated, D143A, DHFR fusion (Arabidopsis thaliana)
Notes: methotrexate growth selection, single substitutions
Starting sequence: PYL1, truncated, DHFR fusion (Arabidopsis thaliana); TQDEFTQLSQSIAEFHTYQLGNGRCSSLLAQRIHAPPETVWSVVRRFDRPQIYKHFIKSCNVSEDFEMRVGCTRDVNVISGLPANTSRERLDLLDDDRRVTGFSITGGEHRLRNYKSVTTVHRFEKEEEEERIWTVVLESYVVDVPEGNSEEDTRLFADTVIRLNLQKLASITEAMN
Variant	relative binding score
I133P	81.6%
H16I	-4.02%
S87T	22.8%
V70H	-2.74%
D65Y	14.1%
C60F	0.662%
Q31W	-2.44%
T73K	26.5%
R46A	39.6%
S87C	20.3%
D92V	4.96%
G21F	-0.97%
E147Y	39.8%
E152A	49.2%
D75H	59.7%
Q10D	76.7%

Repeated from above (set 1):
Strand	log2 enrichment
UCAAGUCCUGUGCUACACAUCGUAUGUACCGAAUCGGAAAAAGGAAAAAGGAGGAAAGUAUUAUGUUACGCCGUUCGGAUCUGCACUUCC	-0.0965
ACCAUGCAGGUGGGCAUCUUUGGGAAGUGGGGCAAGGGGGGGAUAGGGAGGGGGGUAACACUUUGGGAACAGGUGGUCCCAGGUCGAAAC	-0.665
CCUCAAGUCCUGUGCUACACAUCGUAUGUACCGAAUCGGGAGGGUGGGUGGGAAAGUAUUAUGUUACGCCGUUCGGAUCUGCACUUCCAG	-0.198
CCUGUGCUACACAUCGUAUGUACCGAAUCGGGGUUUUUUUGGUUUUUUUGGUUUUUUUGGGAAAGUAUUAUGUUACGCCGUUCGGAUCUG	-0.305
GUGCUACACAUCGUAUGUACCGAAUCGGGGAAAAAAAGGGGUUUUUUUGGGGAAAAAAAGGGGAAAGUAUUAUGUUACGCCGUUCGGAUC	1.21
